Literature values as cited in several papers.
Each line is one published result; not all experiments were run side by side. ± marks the error that the study gave.

SMILES	tested on	test	system	conditions	endpoint	value
Cn1c(C[S+]([O-])c2ccccc2C(F)(F)F)c(C(=O)OC(C)(C)C)c2cc(O)ccc21 (stereo not shown)	Chikungunya virus	viral replication	Vero		EC50	6.5 µM
O=[N+]([O-])c1ccc(O[C@H]2O[C@H](CO)[C@@H](O)[C@H](O)[C@@H]2O)cc1	Beta-mannosidase (Bacteroides thetaiotaomicron, UniProt Q8AAK6)	substrate			kcat	128 s⁻¹
CCC(CC)COC(=O)[C@H](C)N[P@](=O)(OC[C@H]1O[C@@](C#N)(c2ccc3c(N)ncnn23)[C@H](O)[C@@H]1O)Oc1ccccc1	SARS-CoV-2	viral replication	Caco-2		EC90	0.2 ± 0.07 µM
Fc1ccccc1Cc1nc(-c2nc(C(F)(F)F)n[nH]2)cn2ccnc12		equilibrium dialysis	human plasma	1 and 10 µM	plasma protein binding	98.9%
CO/N=C(\C(=O)N[C@@H]1C(=O)N2C(C(=O)O)=C(COC(C)=O)CS[C@H]12)c1csc(N)n1	Enterobacter cloacae		clinical isolate RKI-No_215/15		MIC	≤ 1 µg/mL
O=C1c2ccccc2C(=O)c2oc(-c3ccccc3)nc21	SARS-CoV-2 papain-like protease	enzyme activity, inhibitor		incomplete inhibition, apparent value	IC50	0.56 µM
O=C(O[C@@H]1[C@@H](O)[C@H](Oc2cc(O)c3c(c2)O[C@H](c2ccccc2)CC3=O)O[C@@H]2COC(=O)c3cc(O)c(O)c(O)c3-c3c(cc(O)c(O)c3O)C(=O)O[C@@H]12)c1cc(O)c(O)c(O)c1	SARS-CoV-2 main protease	enzyme activity, inhibitor		concentration not given	inhibition	inhibited
CC1COc2ccccc2N1C(=O)C(Cl)Cl (stereo not shown)	glutathione S-transferase		female rat liver cytosol	added: GSH	scaled intrinsic clearance	26 mL/min/g liver
O=c1cc(-c2ccc(O)c(O)c2)oc2cc(O)cc(O)c12	SARS-CoV-2	viral replication		literature value	EC50	10 to 50 µM
O=C(O[C@@H]1Cc2c(O)cc(O)cc2O[C@@H]1c1cc(=O)c(O)c2c(O)c(O)cc([C@H]3Oc4cc(O)cc(O)c4C[C@H]3O)c2c1)c1cc(O)c(O)c(O)c1	SARS-CoV-2		Vero	concentration not given	viral count reduction	75%
COC(=O)Nc1c(N)nc(-c2nn(Cc3ccccc3F)c3ncc(F)cc23)nc1N			human patients with HFrEF	oral, 10 mg once daily, multiple doses	total Cmax	~1000 nM
NC(=O)c1ncn([C@@H]2O[C@H](CO)[C@@H](O)[C@H]2O)n1	Chikungunya virus	viral replication	Vero		EC50	2.42 µM
Cc1cc(O)c2c(c1)C(=O)c1cc(O)cc(O)c1C2=O	SARS-CoV-2	viral replication		literature value	EC50	25 to 50 µM

For quick reference, copied from above:
SMILES	tested on	test	system	conditions	endpoint	value
O=c1cc(-c2ccc(O)c(O)c2)oc2cc(O)cc(O)c12	SARS-CoV-2	viral replication		literature value	EC50	10 to 50 µM
